Assay results gathered from unrelated publications.
Numbered parts are unrelated; each lists some results of a single study. Positions count from the first letter of the parent shown.

Block 1 — observed: peptide-MHC binding; form: peptide; tested at: concentration not given
Target: HLA class I histocompatibility antigen, A alpha chain, allele A*26:03 (Homo sapiens, UniProt P04439)
Sequence | binding
EKLKSLYNTV | inactive
KLKSLYNTV | inactive
TVLEFILQK | inactive

Block 2 — target: CREB3L2, bZIP domain (human); technique: DHFR protein complementation; medium: yeast; relative to: wild-type JUN-FOS pair; reading: higher = stronger binding
Notes: single substitutions, most at no-binding floor
Starting sequence: JUN, bZIP domain (human); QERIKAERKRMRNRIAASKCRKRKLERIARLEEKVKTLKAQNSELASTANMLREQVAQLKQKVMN; partner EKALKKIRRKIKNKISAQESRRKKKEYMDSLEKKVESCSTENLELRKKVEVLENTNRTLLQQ
Variant | binding fitness [natural log]
A57S | -1.48
E54C | -1.37
S47L | -1.47
E33H | -1.39
T48R | -1.15
Q41G | -1.5
T48H | -1.45
V56A | -1.46

Block 3 — target: CCNA1, cyclin fold, Cln2 fusion (human); technique: yeast growth competition, sequencing; medium: yeast; notes: strong parent motif; relative to: not given; reading: higher = stronger binding; starting sequence: viral docking peptide; TSVRRALFTGGSD
Variant | normalised enrichment score
TSVRRQLFTGGSD [A6Q] | 1.25
TSVRRALFVGGSD [T9V] | 1.33
TSVRRMLFTGGSD [A6M] | -0.102
TSVRRGLFTGGSD [A6G] | 0.6
TSRRRALFTGGSD [V3R] | 0.598
TSVRRALFRGGSD [T9R] | 0.726
TSVRRALFTCGSD [G10C] | 0.839
TSVRRALFTVGSD [G10V] | 0.84
TSVRSALFTGGSD [R5S] | 0.0779
TSVRRALHTGGSD [F8H] | 0.177
TSVRRALFQGGSD [T9Q] | 0.628
TSVRRALYTGGSD [F8Y] | 0.0396
TCVRRALFTGGSD [S2C] | 1.26
TSVRRAWFTGGSD [L7W] | -0.401
TSVRRALFTSGSD [G10S] | 1.41
TSVRRALFTTGSD [G10T] | 1.01
TSVRRADFTGGSD [L7D] | 0.0101
TSVRRALFTGGHD [S12H] | 1.08
TSVRRDLFTGGSD [A6D] | 0.498
TSVRRALFPGGSD [T9P] | 0.862
TSCRRALFTGGSD [V3C] | 1.37
TSVRRALFTGLSD [G11L] | 0.795
TSVDRALFTGGSD [R4D] | -0.409
TSVRRALETGGSD [F8E] | -0.119
TSLRRALFTGGSD [V3L] | 0.184

Block 4 — target: UBE2D2 UBC core domain (UniProt P62837); technique: yeast two-hybrid; medium: yeast; notes: mostly zero background; relative to: not given; reading: higher = stronger interaction
Chain of UniProt P62837 (whole entry, looked up): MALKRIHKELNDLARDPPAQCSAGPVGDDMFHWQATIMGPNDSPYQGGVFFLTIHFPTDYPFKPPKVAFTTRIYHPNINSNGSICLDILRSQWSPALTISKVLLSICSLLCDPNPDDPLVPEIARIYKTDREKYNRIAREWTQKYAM
B1: RFPL3 RING domain (UniProt O75679); chain MAALFQEASSCPVCSDYLEKPMSLECGCTVCLKCINSLQKEPHGEDLLCCCCSMVSQRNKIRP
B2: RNF130 RING domain (UniProt Q86XS8); chain DKETDPDFDHCAVCIESYKQNDVVRILPCKHVFHKSCVDPWLSEHCTCPMCKLNILKALGIV
B3: ARIH1 RING domain (UniProt Q9Y4X5); chain NTRSSAQDMPCQICYLNYPNSYFTGLECGHKFCMQCWSEYLTTKIMEEGMGQTISCPAHGCDILVDDNTVM
B4: RNF10 RING domain (UniProt Q8N5U6); chain VRICSHEVPSCPICLYPPTAAKITRCGHIFCWACILHYLSLSEKTWSKCPICYSSVHKKDLKS
Sequence | lacZ reporter activity
B1 (RFPL3 RING domain) | 0
B2 (RNF130 RING domain) | 14600
B3 (ARIH1 RING domain) | 0
B4 (RNF10 RING domain) | 0

Block 5 — technique: RNA Bind-n-Seq; form: RNA; medium: in vitro; tested at: 365 nM; relative to: no-protein control; reading: higher = stronger binding
Target: RNA binding protein fox-1 homolog 2, RRM domain, GST-SBP tag (RBFOX2, Homo sapiens, UniProt O43251-10, residues 100-194)
Notes: natural RNA segment, single round, ends assumed
Shared flanks, not repeated: GGGAGUUCUACAGUCCGACGAUC … UGGAAUUCUCGGGUGCCAA
Construct (chain): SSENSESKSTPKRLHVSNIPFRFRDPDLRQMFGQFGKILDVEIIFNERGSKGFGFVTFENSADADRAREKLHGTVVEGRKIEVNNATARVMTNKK
Strand | RBNS enrichment (R)
AUGCAAAUGGAGAUCAAAGUAAUUCUGACUGUCCAGGAGCUAUCUCACUUUCUGCUGUGUGGGCGGCCACAUAAAAAGGCAAUUUUAGUGUAUUAAUCAUAGAUUAUUAU | 0.527
CCAUCCUCUCAUCUUGGGUCCCAGCCAGGCCCCCCCAAAACCAAAGCCCCCUCAAGUCCUGGGGUCCCAGCCUGUGCCCCCAGCUUCCUGCCCACCCAGCCCUGAGCAUU | 1.05
CUGUUCUAAAAACGUAAGUACUCCAUUGUAAUAGGGUGGCAUCUUCAGGUAGUGCACAUAUUGGCAAUAGAGGUCCUGAAUUGUUUUUCUAAGACUGAUCUGAGAGCCAU | 0.402
GUAAGAAGAUACAGCUACAGAAAAUAGUUGCGUGUAUGGGAGAACAGUCAUUGUAAUUGGGUAGUUUUGUUAAUAAAUAUUUUUAAAUCUUGCUUUUCAGAAAUUACCGA | 0.363
CUGGGGUCCCCCAUCCCCAUCCUCCAGCUUCUGGUACUCUCCUAGAGACAGAAGCAGGCUGGAGGUAAGGCCUUUGAGCCCACAAAGCCUUAUCAAGUGUCUUCCAUCAU | 0.263
CUCUGAUUUUAAAGUGGUGCAUUUGAUUCCAGCCUUGGUAAUGGAGAGUUUGCAAACACACAGCGGCCCACAGCUUCACGUGGUGGUGUGCAGUGUGAGGCAGCUCCUUG | 0.765
UGAACCGCACUGGAGAAAAGGGGCAAGGUACCCCUGCUGAGGUGUAUGGGCUGCCAUCUCAGGCUGUCUUGAGGACCUGGGCUCCCUCUGCUACUCCCAGGAAAUGGGCU | 0.466
UGGCCGGGAGAGACCCAGGGAGGUUCUGGAGGUUCCUUUCUGUCUCCUGGCCCCACCAGGGAUUUCCCCAUUUCUGUUUGCUGCCUGAAAGCAGGAUGAGGAAGGCCAAG | 1.06

Block 6 — technique: RNA Bind-n-Seq; form: RNA; medium: in vitro; tested at: 20 nM; notes: 6-mer, flanks averaged, single round; together with: 150 mM KCl; relative to: input library; reading: higher = stronger binding
Target: TAR DNA-binding protein 43, full length, His tag (TARDBP, Homo sapiens, UniProt Q13148, residues 1-414)
Strand | 6-mer enrichment (R)
CUAUGA | 0.635
CUUGUC | 0.609
CUAAAG | 0.693
UAGCCA | 0.659
CGAUAU | 0.593
GGUUAU | 0.825
CCGCAU | 0.661
CAUCUG | 0.612

Further values, each from its own experiment
Molecule | partner | technique | medium | together with | measurement | result
CEP43 (Homo sapiens, UniProt O95684) | LAMP5 (Homo sapiens, UniProt Q9UJQ1) | cross-linking MS | cells | BSPNO | cross-linked residues | K184 to M1
